Assay results pooled from the literature.

| SMILES | system | conditions | Cmax |
| --- | --- | --- | --- |
| CCNC(=O)c1noc(-c2cc(C(C)C)c(O)cc2O)c1NC(=O)CCN1CCOCC1 | nude mouse, tumour | intraperitoneal, 80 mg/kg, single dose, tumour-bearing | 4050 ng/mL |
| CN1/C(=C/C=C/c2cc(-c3ccccc3)cc(-c3ccccc3)[o+]2)C(C)(C)c2ccccc21 | male CD-1 mouse, plasma | intravenous, 1 mg/kg, single dose | 101 ng/mL |
| CCC(=C(c1ccc(Cl)cc1)c1ccc(OCCN2CCOCC2)cc1)c1ccc(OC)cc1 | male C57BL/6 mouse, plasma | oral, 400 mg/kg, single dose | 9400 ng/mL |
| N#Cc1cnc2cc(OCC3CCNCC3)c(F)cc2c1Nc1cc(F)c(OCc2cccc(Cl)n2)cc1Cl | female CD-1 mouse, plasma | intravenous, 5 mg/kg | 1050 ng/mL |
| O=C1OC2(c3ccccc31)c1cc(I)c(O)c(I)c1Oc1c2cc(I)c(O)c1I | female C57BL/6 mouse, plasma | intraperitoneal, 50 mg/kg | 26800 ng/mL |
| CCCCC(CC)CNC(=N)NC(=N)NCCCCCCCCNC(=N)NC(=N)NCC(CC)CCCC (centres unmarked) | female BALB/c mouse, plasma | intraperitoneal, 5 mg/kg, single dose | 140 ng/mL |
| COc1cc2c(Oc3ccc(Nc4nn(C)cc4C(=O)NC4CCCCC4)cc3F)ccnc2cc1OCCCCCCC(=O)NO | mouse, plasma | intraperitoneal, 10 mg/kg | 1310 ng/mL |
| Nc1ccn(C[C@@H](CO)OCP(=O)(O)OCCCS(=O)(=O)CCCCCCCCCCCCC2CCC2)c(=O)n1 | mouse, plasma | intravenous, 3 mg/kg, single dose | 1690 ng/mL |
| CN1CC[C@H](c2c(O)cc(O)c3c(=O)cc(/C=C/c4c(Cl)cccc4Cl)oc23)[C@H](O)C1 | male BALB/c mouse, plasma | oral, 50 mg/kg | 1030 ng/mL |
| CCc1nc(N)nc(N)c1C#C[C@H](C)c1cc(-c2cc(C)nc(C)c2)ccc1Cl | mouse, plasma | oral, 5 mg/kg | 400 ng/mL |
| Cc1cccc(O[C@H]2CCC[C@@H](C(C)CNCc3ccncc3)C2)c1 (relative stereo) | female C57BL/6 mouse, plasma | intravenous, 3 mg/kg | 775 ng/mL |
| COCc1nc(C(F)(F)F)[nH]c1-c1cc(C(=O)N2CC(c3ccc(C#N)cc3)C2)c(C)cc1C | mouse, plasma | oral, 10 mg/kg | 7740 ng/mL |
| CC(C)Cn1c(SCC(=O)N2CCc3ccccc3C2)nc2cc(Cl)ccc2c1=O | male C57BL/6 mouse, plasma | intraperitoneal, 10 mg/kg | 0.797 µM |
| C[C@@H](COc1ccc(F)cc1)C(=O)n1nc(N)c2ccc(CO)cc21 | male C57BL/6 mouse, plasma | intraperitoneal, 10 mg/kg | 7.4 µM |
| C[N+]1(CC(=O)OC2CCCCCCCCCCC2)CCCCC1 | mouse, plasma | intraperitoneal, 5 mg/kg, single dose | 600 ng/mL |
| CCC/C(=C\C1=C(F)C(=O)c2ccccc2C1=O)C(=O)N(CC)CC | mouse, plasma | oral, 25 mg/kg | 7450 ng/mL |
| [2H]C([2H])(N)C([2H])([2H])NC(=O)c1cc(C2CC2)nc2c1cnn2C(C)C | female BALB/c mouse, plasma | intraperitoneal, 50 mg/kg | 2640 ng/mL |

Some of these lines once more:
| SMILES | system | conditions | Cmax |
| --- | --- | --- | --- |
| CN1/C(=C/C=C/c2cc(-c3ccccc3)cc(-c3ccccc3)[o+]2)C(C)(C)c2ccccc21 | male CD-1 mouse, plasma | intravenous, 1 mg/kg, single dose | 101 ng/mL |
| CCC(=C(c1ccc(Cl)cc1)c1ccc(OCCN2CCOCC2)cc1)c1ccc(OC)cc1 | male C57BL/6 mouse, plasma | oral, 400 mg/kg, single dose | 9400 ng/mL |
